Values quoted from earlier work that unrelated publications cite.
Compare with care: the assays were run in different laboratories. ± gives the spread as reported.
EGFR: Epidermal growth factor receptor (EGFR, Homo sapiens, UniProt P00533)
EGFR L858R: Epidermal growth factor receptor (EGFR, Homo sapiens, UniProt P00533, L858R)

COc1ccc(-c2nc3n(n2)CC(c2ccc(Cl)cc2)C3)cc1 (stereo not drawn)
IC50 (EGFR; inhibitor): 1500 nM

COc1ccc(/C=C/C(=O)OCc2cn(-c3ccccc3)nc2-c2ccc(F)cc2)cc1
IC50 (EGFR): 4870 nM

O=C(NN=Cc1ccc(O)cc1)Nc1cc2c(Nc3ccc(F)c(Cl)c3)ncnc2cc1OC1CCOC1 (stereo not drawn)
IC50 (EGFR): 56 nM

O=C(CSc1nc2ccccc2c(=O)n1-c1ccccc1)NNC(=O)c1cccc(Cl)c1
IC50 (EGFR): 590 nM

Fc1ccc(Nc2nc(-c3ccc(Cl)cc3)nc3ccc(-c4ccc(F)cc4)cc23)cc1
IC50 (EGFR): 59.2 nM

C=CC(=O)N1CCC[C@@H](n2nc(-c3cccc4ccccc34)c3c(N)ncnc32)C1
Ki (EGFR L858R): 44 ± 6.5 nM

Cc1cc(C)nc(NS(=O)(=O)c2ccc(-n3cc(CSc4nc5ccccc5s4)nn3)cc2)n1
IC50 (EGFR; inhibitor): 103 nM

CCc1cccc(NC(=O)CSc2nc3ccccc3c(=O)n2-c2ccccc2)c1
IC50 (EGFR; kinase activity, inhibitor): 58300 nM

C=CC(=O)N1CCC[C@@H](n2nc(-c3ccc4ccccc4c3)c3c(N)ncnc32)C1
IC50 (EGFR L858R): 1.1 ± 0.6 nM

Repeated from above:
O=C(CSc1nc2ccccc2c(=O)n1-c1ccccc1)NNC(=O)c1cccc(Cl)c1
IC50 (EGFR): 590 nM
